# Results collected from several papers.
# Protocols differ between the studies behind these lines.
Compound,test system,conditions,concentration
CC(C)(O)c1ccc(N2Cc3c(ccnc3-c3ccc(F)cc3OCC(F)(F)F)C2=O)cc1,"male C57BL/6 mouse, brain","oral, 100 mg/kg, 6 h",7620 ng/g
CC(C)n1ncc2c(C(=O)NC[C@@H](C)N)cc(C3CC3)nc21,"female BALB/c mouse, plasma","intraperitoneal, 30 mg/kg, 1 h",1510 ng/mL
Cc1cc(C(=O)N[C@@H](CC(=O)NC(C)(C)C)C(=O)NCCNC(=O)c2cccc(-n3cccn3)c2)no1,"mouse, plasma","intravenous, 0.1 mg/kg, 5 min",39.7 ng/mL
[2H]C([2H])(N)C([2H])([2H])NC(=O)c1cc(C2CC2)nc2c1cnn2C(C)C,"female BALB/c mouse, plasma","intraperitoneal, 50 mg/kg, 12 h",66.3 ng/mL
C=CC(=O)N1CC2C(=O)N(CCN(C)C)c3c(c4cc(Cl)c(-c5c(O)cccc5F)nc4n(-c4c(C)ccnc4C(C)C)c3=O)N2CC1C (stereo not drawn),"nude mouse, plasma","oral, 100 mg/kg, 8 h",12.8 µM
Cc1cc(C(=O)N[C@@H](CC(=O)NC(C)(C)C)C(=O)NCCNC(=O)c2cccc(-c3cc[nH]n3)c2)no1,"mouse, plasma","intravenous, 0.1 mg/kg, 5 min",49.9 ng/mL
COc1cccc(C2CC(c3ccccc3Cl)Nc3nc(N)nn32)c1 (stereo not drawn),"male CD-1 mouse, brain","intraperitoneal, 20 mg/kg, 1 h, single dose",11 µM
Cc1ncsc1-c1ccc(CNC(=O)[C@@H]2C[C@@H](O)CN2C(=O)[C@@H](NC(=O)COCC(C)(COCCOCCOCCNC(=O)C[C@@H]2N=C(c3ccc(Cl)cc3)c3c(sc(C)c3C)-n3c(C)nnc32)COCCOCCOCCNC(=O)C[C@@H]2N=C(c3ccc(Cl)cc3)c3c(sc(C)c3C)-n3c(C)nnc32)C(C)(C)C)cc1,"male C57BL/6 mouse, plasma","intravenous, 5 mg/kg, 1 h, single dose",5000 ng/mL
CC[C@H](C)/C=C/C=C/C=C/C(O)=C/C(=O)C(F)(F)Cl,"female C57BL/6 mouse, plasma","oral, 25 mg/kg, 4 h",> 1 µM
CC(C)n1ncc2c(C(=O)NCCN(C)C)cc(C3CC3)nc21,"female BALB/c mouse, plasma","intraperitoneal, 50 mg/kg, 30 min",720 ng/mL
Cc1c2ccnc(C(=O)N[C@H](C)CN(C)C)c2cc2c3cc(OCCCN4CCN(C)CC4)ccc3n(C)c12,"male C57BL/6 mouse, plasma","intraperitoneal, 10 mg/kg, 2 h, single dose",1.93 µM
O=C1CCC(N2Cc3cc(C(=O)O)c(F)cc3C2=O)C(=O)N1 (stereo not drawn),"male CD-1 mouse, plasma","intravenous, 1 mg/kg, 4.98 min",1340 ng/mL

# Repeated from above:
Compound,test system,conditions,concentration
C=CC(=O)N1CC2C(=O)N(CCN(C)C)c3c(c4cc(Cl)c(-c5c(O)cccc5F)nc4n(-c4c(C)ccnc4C(C)C)c3=O)N2CC1C (stereo not drawn),"nude mouse, plasma","oral, 100 mg/kg, 8 h",12.8 µM
